# Measured values collected from several papers.
# Each numbered part is a random draw from the data of one study; scales do not carry over between parts. Positions count from the first letter of the parent shown.

# Block 1
# Target: RNA binding protein fox-1 homolog 2, RRM domain, GST-SBP tag (RBFOX2, Homo sapiens, UniProt O43251-10, residues 100-194)
# Technique: RNA Bind-n-Seq
# Form: RNA
# Medium: in vitro
# Tested at: 365 nM
# Notes: natural RNA segment, single round, ends assumed
# Baseline: no-protein control
# Reading: higher = stronger binding
# All sequences stand within: GGGAGUUCUACAGUCCGACGAUC … UGGAAUUCUCGGGUGCCAA
# Construct (chain): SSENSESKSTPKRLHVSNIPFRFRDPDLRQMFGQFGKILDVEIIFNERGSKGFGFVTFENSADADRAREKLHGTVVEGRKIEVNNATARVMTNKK
Sequence,RBNS enrichment (R)
CCAUGAAGUGAUUCUGUUGACAAUAAUGUAUACUGCGCGUUCUCUUCACUGGUUUAUCUGCAGAAAUUUCUCUGGGCUUUUUUCGGUGUUAGAUUCAACACUGCGCUAAA,0.466
AUGAUUGCUGCUGACAGGAACACCUGGAUCUCAAGAGCUUUUUAUGACAGGUGGACAUCUGUGUCAUUUUUCCUUGUUCCCUCAUCCAUCCAUCCAUCCAUCCAUCCAUC,0.502
UUUCUUUAUUGCUACAGAGUAUCCUCUAUAAGUUAUUAAACGAGUGUAAUGGUAUAAUGCCCUUCCAUCACACAACAGGACACCACCCCAGUUUUGUUUUCUGGGUUUCU,0.623
UUCCAGCAGACCGGGUGCAUCCCUUUUCCUAAUACCUAAUAAAGAGCUUGACAGUGAUAUCCGCCAUCUGCCUUGGGGUCUGAGAAUAAGCGGGAGUUAGAGGGAUGUCU,0.388
CCUCUCUGUUACUUUUGGCCUAUGUUGUUAGAAAUAAGAUGCUAUCUUGCAUAGUUAGAAUUAAGCGUUUGUCCAUCUCUAGAUAACAUUGAAAAGUUUGAGUGUUACAG,0.376
UUAUGCGUGCGAGAAGUCAGUGGUAACUGCUGCAGGGCUUAAUACAUUAGUGGUAACUGGUUUAAAAAACAAAGACUGUAAGCCUGUGUGUGCCACUGUUUGCUUCAACA,0.662
GAUUCAUCUACUAACAAAUUCAAAUUAAACCUUCACAUAGUAGGAGACUUUGUAGACUACUAUAAAGACCAUCCUGAGCCAGACCUGCAGUCAACAGCAAGAGCAAGAAG,0.325
AGGAAUCUGUUGAACACAGCGACCAGAUGACCUUCCAUUUCACCGGCGGCAGCAGUUUCAGCGUGCAGUUCCCAAACCCCAAAGCUGACCCUGCGCCCCAUUUGAAUACG,0.201
CCCGCCACGGUGGAUGUAUGUGCGCUCACCUGAGCUUGCUUGGGCCCAGUGUGGGGGUGGCAGGCAGGUGAGGGCUCCGUUGCCUUGGUCUGGGGGCAGAAAUAAAAUCC,1.92
UAUCUCAGUUCAUCAGAGGGCCUGAGAAGCUGCGGGGCAGUGUAAAGUAAAGUAUGCUGGGCUGGUGGUGGUCAGCCUUCCCCUUGCCAAGAAGAGAGCAAUUGAAUCCU,0.56
CACGGUGGGGACAGGGCAGAUUUAUGAGAAAUAUCAAUUGCCCCUCUCUUCUGGACCAAUUCCUUAACCUUGGGAAAGCUCAGGGCCUAGUAUCAGGGUGGGUGAUAGAA,0.486
ACUUGGUAGAUACUGCUCCAAUAUCCUGUUGCUAGCCCCCACCUCCUUCUGGAACAGUGUGAGACAAUUAAACUUCAUUCCCUGUGGGUUAGCACUUAAUAUGUAGAAGC,0.415

# Block 2
# Target: PABPC1L2, full length, GST fusion (mouse, UniProt A0ABA7IW68)
# Technique: RNAcompete
# Form: RNA
# Medium: in vitro
# Tested at: 20 nM
# Notes: 7-mer, probes averaged, single round
# Baseline: mean of 7-mers
# Reading: higher = stronger binding
# Residues (chain): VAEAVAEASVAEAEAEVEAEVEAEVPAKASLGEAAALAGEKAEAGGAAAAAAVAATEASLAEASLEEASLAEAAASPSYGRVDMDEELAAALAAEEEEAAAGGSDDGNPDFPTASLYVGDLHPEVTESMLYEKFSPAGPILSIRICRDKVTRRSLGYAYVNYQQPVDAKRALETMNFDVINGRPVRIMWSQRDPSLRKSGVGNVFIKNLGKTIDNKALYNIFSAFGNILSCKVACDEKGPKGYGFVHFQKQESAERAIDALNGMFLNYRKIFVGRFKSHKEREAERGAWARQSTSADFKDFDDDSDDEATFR
Sequence,7-mer Z-score
CAUUCAG,-0.0844
GUCAUCG,-0.206
AGGGUUC,-0.112
GAAGCUU,-0.284
AACUAUC,-0.0826
GUAUCUC,-0.251
CCAUAAU,-0.166
GCAUGUU,-0.251
UGAGCCU,-0.238
GUAUAAG,0.0261
GUCGGUU,-0.26
GGUGCCA,0.24
GCUAUUU,-0.215
GUUGUAC,-0.358
UGCUCCC,-0.17
AUAGGGA,0.196
GGGUGUA,0.182
AACUAUU,0.146
GCUCUUU,-0.298
CACGGAU,-0.0174
GACAUUA,-0.05
GUGUAUC,-0.302
ACAUCUC,-0.282

# Block 3
# Target: ABI1, truncated, D143A, DHFR fusion (Arabidopsis thaliana)
# Technique: DHFR PCA, deep sequencing
# Medium: yeast
# Notes: methotrexate growth selection, single substitutions
# Added: (+)-ABA 0.39 µM
# Baseline: wild-type fitted maximum
# Reading: higher = stronger binding
# Parent: PYL1, truncated, DHFR fusion (Arabidopsis thaliana); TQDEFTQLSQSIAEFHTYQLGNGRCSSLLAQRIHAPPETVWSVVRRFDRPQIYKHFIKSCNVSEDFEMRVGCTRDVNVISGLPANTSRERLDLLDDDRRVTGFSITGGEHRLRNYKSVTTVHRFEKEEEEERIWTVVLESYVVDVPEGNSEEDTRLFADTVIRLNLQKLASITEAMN; partner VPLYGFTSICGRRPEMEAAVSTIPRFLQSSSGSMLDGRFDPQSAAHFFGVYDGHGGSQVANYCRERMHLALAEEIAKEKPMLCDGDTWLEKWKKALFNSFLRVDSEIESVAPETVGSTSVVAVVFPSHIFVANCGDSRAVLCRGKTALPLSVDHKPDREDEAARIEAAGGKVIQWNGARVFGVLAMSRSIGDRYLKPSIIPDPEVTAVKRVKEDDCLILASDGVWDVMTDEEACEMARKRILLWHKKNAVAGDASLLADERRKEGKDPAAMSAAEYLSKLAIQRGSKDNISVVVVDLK
Variant,relative binding score [%]
N77M,50.4
K54G,-1.16
F157I,-12.7
T160F,57.5
N149R,14.2
V78R,28.4
E151L,23.1
I133V,66.4
Q19L,12
N165W,19.6
T39S,16.1
A30V,36.1
N85P,-6.08
E129T,47.4
R69F,2.98
V100I,39.7
D75W,42.2
E64L,16.4
L156I,17.7
R99F,75.4
F15N,0.544
D75Q,52.5
T160R,-2.59
G102S,26.9
T135A,-3.95

# Block 4
# Target: CREM, bZIP domain (human)
# Technique: DHFR protein complementation
# Medium: yeast
# Notes: single substitutions, most at no-binding floor
# Baseline: wild-type JUN-FOS pair
# Reading: higher = stronger binding
# Parent: JUN, bZIP domain (human); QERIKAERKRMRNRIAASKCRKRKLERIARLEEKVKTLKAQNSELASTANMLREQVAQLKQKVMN; partner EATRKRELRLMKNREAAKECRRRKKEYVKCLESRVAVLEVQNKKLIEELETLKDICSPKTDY
Variant,binding fitness [natural log]
A57M,-1.22
V56K,-1.49
S43G,-1.39
N42C,-1.57
A46Y,-1.31
K36M,-1.35
A57S,-1.4
K39F,-1.51
T48I,-1.28
T48Q,-1.28
Q58P,-1.53
M51P,-1.56
A46V,-1.41
L45T,-1.53
A46P,-1.47
L45Y,-1.26
E54H,-1.47
V35L,-1.27
M51R,-1.44
L45S,-1.53
L38C,-1.58

# Block 5
# Target: CCND3, cyclin fold, Cln2 fusion (human)
# Technique: yeast growth competition, sequencing
# Medium: yeast
# Notes: weak parent motif
# Baseline: not given
# Reading: higher = stronger binding
# Parent: BRCA2 docking peptide (human); PSIKRNLLNEFDR; partner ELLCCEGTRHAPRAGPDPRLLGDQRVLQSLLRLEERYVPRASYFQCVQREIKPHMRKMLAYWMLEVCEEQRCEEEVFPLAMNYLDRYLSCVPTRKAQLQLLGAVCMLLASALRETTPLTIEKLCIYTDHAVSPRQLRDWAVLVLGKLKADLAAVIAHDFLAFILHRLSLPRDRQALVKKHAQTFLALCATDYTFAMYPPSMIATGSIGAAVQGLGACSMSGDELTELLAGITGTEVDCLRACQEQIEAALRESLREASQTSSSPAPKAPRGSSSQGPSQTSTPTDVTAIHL
Variant,normalised enrichment score
L8H,0.146
R13K,0.0466
E10M,0.0406
N6A,0.0857
L8P,0.0784
P1M,-0.0255
F11D,0.155
D12W,0.21
S2T,0.161
L7C,0.0818
R13Y,0.163
R5E,0.121
F11I,0.185
L8M,0.187
E10P,0.129
S2M,0.136
L7Y,0.0881
S2E,0.0643
E10G,0.0653
E10D,0.206
N9R,0.234
I3D,-0.0605
R13E,0.108
N6E,0.129
L7F,0.0934

# Block 6
# Target: Protein C-ets-1 (ETS1, Homo sapiens, UniProt P14921, residues 1-441, K379A, full length assumed)
# Technique: protein-binding microarray
# Form: double-stranded DNA, one strand shown
# Medium: in vitro
# Tested at: not given
# Notes: k-mer, scored over probes, only values ≥0.25
# Reading: higher = stronger binding
# Construct (chain): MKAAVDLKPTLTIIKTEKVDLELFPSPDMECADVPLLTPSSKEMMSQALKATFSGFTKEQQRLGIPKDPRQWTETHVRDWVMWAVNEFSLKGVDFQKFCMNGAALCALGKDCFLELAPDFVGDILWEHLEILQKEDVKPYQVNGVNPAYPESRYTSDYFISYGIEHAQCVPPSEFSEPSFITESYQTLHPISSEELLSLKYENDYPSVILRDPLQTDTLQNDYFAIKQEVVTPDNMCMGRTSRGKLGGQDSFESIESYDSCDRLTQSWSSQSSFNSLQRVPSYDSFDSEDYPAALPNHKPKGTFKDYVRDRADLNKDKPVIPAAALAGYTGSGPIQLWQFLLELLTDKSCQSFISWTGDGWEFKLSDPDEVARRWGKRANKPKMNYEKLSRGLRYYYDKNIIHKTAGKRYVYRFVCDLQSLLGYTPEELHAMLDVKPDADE
Sequence,E-score
ACCGGCGC,0.369
GCCACACA,0.254
AGGTTGTA,0.26
TAATATGA,0.274
CGGTAGAC,0.262
ATAGTTTG,0.308
ACCTAACC,0.26
AGTTCCGG,0.382
CCGGCACA,0.25
ACAGATCC,0.273
ATATACTA,0.295
CCACCGAC,0.324
CCGGGCAA,0.279
GCCGCCCC,0.31
ATACATCG,0.299
CCAATAAC,0.252
TGCCGGAA,0.359
GCCCGCCC,0.312

# Repeated from above (block 1):
Sequence,RBNS enrichment (R)
CCUCUCUGUUACUUUUGGCCUAUGUUGUUAGAAAUAAGAUGCUAUCUUGCAUAGUUAGAAUUAAGCGUUUGUCCAUCUCUAGAUAACAUUGAAAAGUUUGAGUGUUACAG,0.376
UUAUGCGUGCGAGAAGUCAGUGGUAACUGCUGCAGGGCUUAAUACAUUAGUGGUAACUGGUUUAAAAAACAAAGACUGUAAGCCUGUGUGUGCCACUGUUUGCUUCAACA,0.662
GAUUCAUCUACUAACAAAUUCAAAUUAAACCUUCACAUAGUAGGAGACUUUGUAGACUACUAUAAAGACCAUCCUGAGCCAGACCUGCAGUCAACAGCAAGAGCAAGAAG,0.325
AGGAAUCUGUUGAACACAGCGACCAGAUGACCUUCCAUUUCACCGGCGGCAGCAGUUUCAGCGUGCAGUUCCCAAACCCCAAAGCUGACCCUGCGCCCCAUUUGAAUACG,0.201
CCCGCCACGGUGGAUGUAUGUGCGCUCACCUGAGCUUGCUUGGGCCCAGUGUGGGGGUGGCAGGCAGGUGAGGGCUCCGUUGCCUUGGUCUGGGGGCAGAAAUAAAAUCC,1.92
UAUCUCAGUUCAUCAGAGGGCCUGAGAAGCUGCGGGGCAGUGUAAAGUAAAGUAUGCUGGGCUGGUGGUGGUCAGCCUUCCCCUUGCCAAGAAGAGAGCAAUUGAAUCCU,0.56
CACGGUGGGGACAGGGCAGAUUUAUGAGAAAUAUCAAUUGCCCCUCUCUUCUGGACCAAUUCCUUAACCUUGGGAAAGCUCAGGGCCUAGUAUCAGGGUGGGUGAUAGAA,0.486
ACUUGGUAGAUACUGCUCCAAUAUCCUGUUGCUAGCCCCCACCUCCUUCUGGAACAGUGUGAGACAAUUAAACUUCAUUCCCUGUGGGUUAGCACUUAAUAUGUAGAAGC,0.415
